Published values from different studies.
Parts stem from different laboratories: compare values within a part only.
UniProt O75582, sequence (whole entry, looked up): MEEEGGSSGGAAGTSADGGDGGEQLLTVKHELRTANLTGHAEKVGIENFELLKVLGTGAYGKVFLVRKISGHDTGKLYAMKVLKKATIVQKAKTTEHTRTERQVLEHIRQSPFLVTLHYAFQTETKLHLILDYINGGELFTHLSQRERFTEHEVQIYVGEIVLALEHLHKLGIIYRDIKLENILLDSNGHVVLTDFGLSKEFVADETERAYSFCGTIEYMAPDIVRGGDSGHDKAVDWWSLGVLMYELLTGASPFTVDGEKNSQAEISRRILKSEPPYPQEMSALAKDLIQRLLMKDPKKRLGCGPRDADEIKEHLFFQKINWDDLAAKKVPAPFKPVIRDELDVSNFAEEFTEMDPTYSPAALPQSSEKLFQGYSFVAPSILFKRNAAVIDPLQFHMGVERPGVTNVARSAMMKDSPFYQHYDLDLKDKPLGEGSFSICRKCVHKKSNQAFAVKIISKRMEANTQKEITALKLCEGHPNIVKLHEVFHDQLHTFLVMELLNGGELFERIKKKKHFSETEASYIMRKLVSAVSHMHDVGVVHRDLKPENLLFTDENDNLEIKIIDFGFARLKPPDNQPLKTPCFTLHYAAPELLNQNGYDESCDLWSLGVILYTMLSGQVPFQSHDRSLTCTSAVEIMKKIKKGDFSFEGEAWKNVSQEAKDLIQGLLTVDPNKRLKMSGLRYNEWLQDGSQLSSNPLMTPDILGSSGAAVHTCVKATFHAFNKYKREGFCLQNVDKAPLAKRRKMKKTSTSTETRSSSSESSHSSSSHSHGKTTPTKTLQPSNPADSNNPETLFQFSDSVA
UniProt Q04759, sequence (whole entry, looked up): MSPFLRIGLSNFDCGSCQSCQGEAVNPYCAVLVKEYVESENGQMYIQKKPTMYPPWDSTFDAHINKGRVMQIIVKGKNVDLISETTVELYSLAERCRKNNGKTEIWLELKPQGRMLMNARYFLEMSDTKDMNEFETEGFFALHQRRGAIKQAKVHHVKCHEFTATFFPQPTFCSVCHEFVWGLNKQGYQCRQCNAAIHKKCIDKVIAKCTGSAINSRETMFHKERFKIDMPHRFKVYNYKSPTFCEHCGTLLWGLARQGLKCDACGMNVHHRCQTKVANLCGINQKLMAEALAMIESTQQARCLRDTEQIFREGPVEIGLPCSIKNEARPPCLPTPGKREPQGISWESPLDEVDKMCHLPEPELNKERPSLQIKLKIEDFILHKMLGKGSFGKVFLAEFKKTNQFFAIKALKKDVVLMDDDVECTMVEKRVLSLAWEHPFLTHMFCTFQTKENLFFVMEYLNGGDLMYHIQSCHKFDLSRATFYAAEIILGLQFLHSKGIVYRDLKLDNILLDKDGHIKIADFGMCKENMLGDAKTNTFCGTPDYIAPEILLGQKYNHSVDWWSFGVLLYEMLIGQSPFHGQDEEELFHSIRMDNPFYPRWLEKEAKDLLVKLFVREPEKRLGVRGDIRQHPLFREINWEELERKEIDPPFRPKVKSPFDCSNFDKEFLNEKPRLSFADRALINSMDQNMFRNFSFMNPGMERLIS
UniProt Q9UPC5, sequence (whole entry, looked up): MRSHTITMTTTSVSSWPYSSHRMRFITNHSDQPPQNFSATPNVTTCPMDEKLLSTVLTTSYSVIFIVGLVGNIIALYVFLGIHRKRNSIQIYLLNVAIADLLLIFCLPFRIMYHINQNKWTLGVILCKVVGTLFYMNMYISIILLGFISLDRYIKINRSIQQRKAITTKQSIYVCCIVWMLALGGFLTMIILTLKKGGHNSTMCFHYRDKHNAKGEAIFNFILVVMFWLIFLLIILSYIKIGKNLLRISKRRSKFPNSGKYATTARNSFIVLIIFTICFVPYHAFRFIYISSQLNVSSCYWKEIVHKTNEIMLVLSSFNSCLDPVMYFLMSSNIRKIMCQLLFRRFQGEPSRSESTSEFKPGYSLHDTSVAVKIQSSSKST
UniProt Q8TDS7, sequence (whole entry, looked up): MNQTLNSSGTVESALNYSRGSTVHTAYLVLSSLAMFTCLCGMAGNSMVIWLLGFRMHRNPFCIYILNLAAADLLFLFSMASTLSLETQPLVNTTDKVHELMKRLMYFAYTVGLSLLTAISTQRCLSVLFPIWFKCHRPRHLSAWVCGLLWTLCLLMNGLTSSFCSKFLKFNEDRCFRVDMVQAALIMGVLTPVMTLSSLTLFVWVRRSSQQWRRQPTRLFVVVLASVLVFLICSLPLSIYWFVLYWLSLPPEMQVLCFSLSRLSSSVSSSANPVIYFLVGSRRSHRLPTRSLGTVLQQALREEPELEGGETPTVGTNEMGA
UniProt Q16513, sequence (whole entry, looked up): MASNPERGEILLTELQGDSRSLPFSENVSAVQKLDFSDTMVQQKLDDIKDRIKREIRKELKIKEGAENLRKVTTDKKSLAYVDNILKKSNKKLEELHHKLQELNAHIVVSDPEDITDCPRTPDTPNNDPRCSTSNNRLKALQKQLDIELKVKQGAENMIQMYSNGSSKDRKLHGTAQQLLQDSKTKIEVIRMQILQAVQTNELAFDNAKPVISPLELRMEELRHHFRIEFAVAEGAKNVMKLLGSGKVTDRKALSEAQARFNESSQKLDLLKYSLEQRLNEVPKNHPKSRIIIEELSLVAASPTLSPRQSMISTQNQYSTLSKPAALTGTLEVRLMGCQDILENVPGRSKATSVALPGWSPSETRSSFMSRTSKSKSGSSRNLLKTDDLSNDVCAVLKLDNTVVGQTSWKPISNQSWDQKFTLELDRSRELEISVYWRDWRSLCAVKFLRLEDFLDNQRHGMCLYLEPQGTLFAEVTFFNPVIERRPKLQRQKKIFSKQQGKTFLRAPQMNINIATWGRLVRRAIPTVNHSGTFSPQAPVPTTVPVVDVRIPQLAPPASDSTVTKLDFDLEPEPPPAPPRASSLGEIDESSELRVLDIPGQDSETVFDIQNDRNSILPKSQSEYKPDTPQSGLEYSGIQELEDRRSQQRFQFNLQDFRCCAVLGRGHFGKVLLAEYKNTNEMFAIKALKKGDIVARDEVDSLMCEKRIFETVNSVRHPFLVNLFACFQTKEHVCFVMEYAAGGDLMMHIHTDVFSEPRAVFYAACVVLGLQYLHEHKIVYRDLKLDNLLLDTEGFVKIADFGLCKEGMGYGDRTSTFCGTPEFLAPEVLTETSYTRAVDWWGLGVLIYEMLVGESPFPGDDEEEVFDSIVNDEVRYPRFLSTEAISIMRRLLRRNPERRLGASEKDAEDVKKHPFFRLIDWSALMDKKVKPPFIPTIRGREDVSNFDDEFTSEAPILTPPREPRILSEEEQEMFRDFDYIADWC
UniProt Q8NE63, sequence (whole entry, looked up): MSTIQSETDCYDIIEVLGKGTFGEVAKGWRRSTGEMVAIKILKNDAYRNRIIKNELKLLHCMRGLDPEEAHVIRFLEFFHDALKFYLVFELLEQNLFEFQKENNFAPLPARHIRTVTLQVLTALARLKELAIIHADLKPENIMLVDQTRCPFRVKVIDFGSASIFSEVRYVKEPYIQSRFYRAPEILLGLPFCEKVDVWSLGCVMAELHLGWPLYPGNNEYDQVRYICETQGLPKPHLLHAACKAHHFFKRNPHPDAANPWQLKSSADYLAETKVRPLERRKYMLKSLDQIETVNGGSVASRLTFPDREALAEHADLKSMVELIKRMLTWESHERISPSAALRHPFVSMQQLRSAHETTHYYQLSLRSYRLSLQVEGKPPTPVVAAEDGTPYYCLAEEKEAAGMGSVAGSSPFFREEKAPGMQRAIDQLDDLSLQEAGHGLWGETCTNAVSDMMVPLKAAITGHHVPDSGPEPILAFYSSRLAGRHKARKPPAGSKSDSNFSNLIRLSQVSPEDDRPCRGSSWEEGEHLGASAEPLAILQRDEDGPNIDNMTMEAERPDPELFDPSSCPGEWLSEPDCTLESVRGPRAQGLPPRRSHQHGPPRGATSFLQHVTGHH
UniProt O94768, sequence (whole entry, looked up): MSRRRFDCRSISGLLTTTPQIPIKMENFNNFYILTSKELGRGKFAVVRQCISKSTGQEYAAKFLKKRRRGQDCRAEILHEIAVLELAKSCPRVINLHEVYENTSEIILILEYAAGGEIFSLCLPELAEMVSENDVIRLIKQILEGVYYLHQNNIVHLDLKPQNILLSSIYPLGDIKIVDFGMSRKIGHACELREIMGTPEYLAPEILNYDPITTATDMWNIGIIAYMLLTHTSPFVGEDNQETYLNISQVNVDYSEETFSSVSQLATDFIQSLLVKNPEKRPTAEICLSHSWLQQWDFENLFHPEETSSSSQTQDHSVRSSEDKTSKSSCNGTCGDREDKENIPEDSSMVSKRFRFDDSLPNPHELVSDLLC
UniProt P07948, sequence (whole entry, looked up): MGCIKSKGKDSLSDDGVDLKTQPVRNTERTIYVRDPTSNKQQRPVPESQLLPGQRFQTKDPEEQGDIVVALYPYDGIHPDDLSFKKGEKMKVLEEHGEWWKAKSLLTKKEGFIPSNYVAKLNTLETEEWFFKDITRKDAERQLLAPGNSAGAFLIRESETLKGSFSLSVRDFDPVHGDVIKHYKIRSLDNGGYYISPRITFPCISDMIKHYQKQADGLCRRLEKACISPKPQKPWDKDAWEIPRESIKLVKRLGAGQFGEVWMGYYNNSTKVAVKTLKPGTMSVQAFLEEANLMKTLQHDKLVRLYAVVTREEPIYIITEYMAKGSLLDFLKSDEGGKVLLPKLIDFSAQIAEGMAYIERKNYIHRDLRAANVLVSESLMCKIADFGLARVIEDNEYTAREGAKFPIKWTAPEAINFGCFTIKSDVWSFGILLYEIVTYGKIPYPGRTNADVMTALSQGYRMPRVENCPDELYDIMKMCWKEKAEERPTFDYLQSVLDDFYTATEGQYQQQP
UniProt Q01726, sequence (whole entry, looked up): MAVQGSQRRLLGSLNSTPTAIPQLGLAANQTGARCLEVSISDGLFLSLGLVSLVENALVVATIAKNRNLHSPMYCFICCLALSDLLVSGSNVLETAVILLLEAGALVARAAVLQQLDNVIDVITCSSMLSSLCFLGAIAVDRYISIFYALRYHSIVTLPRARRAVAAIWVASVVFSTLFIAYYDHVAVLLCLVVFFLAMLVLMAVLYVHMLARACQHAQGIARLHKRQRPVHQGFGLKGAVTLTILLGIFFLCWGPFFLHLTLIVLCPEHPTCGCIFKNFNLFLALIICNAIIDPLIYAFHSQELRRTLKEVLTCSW

Series 1
SMILES: C[C@@H](c1cccc(C#N)c1)n1cc(Cl)cc(C(N)=O)c1=N
Tested at: 1 µM
| target | test | remaining binding |
| --- | --- | --- |
| Ribosomal protein S6 kinase alpha-5, C-terminal kinase domain (RPS6KA5, Homo sapiens, UniProt O75582) | cell-free assay, competition with immobilised ligand | 74% |
| RET (Homo sapiens, UniProt P07949, M918T) | cell-free assay, competition with immobilised ligand | 100% |
| DMPK (Homo sapiens, UniProt Q09013) | cell-free assay, competition with immobilised ligand | 100% |
| FLT3 (Homo sapiens, UniProt P36888, D835Y) | cell-free assay, competition with immobilised ligand | 97% |
| MAPK8 (Homo sapiens, UniProt P45983) | cell-free assay, competition with immobilised ligand | 75% |
| SIK1 (Homo sapiens, UniProt P57059) | competition binding | 96% |
| ALK (Homo sapiens, UniProt Q9UM73, C1156Y) | cell-free assay, competition with immobilised ligand | 98% |
| IKBKE (Homo sapiens, UniProt Q14164) | cell-free assay, competition with immobilised ligand | 56% |
| BTK (Homo sapiens, UniProt Q06187) | cell-free assay, competition with immobilised ligand | 98% |
| STK17B (Homo sapiens, UniProt O94768) | cell-free assay, competition with immobilised ligand | 72% |
| BRSK1 (Homo sapiens, UniProt Q8TDC3) | cell-free assay, competition with immobilised ligand | 93% |
| CDK2 (Homo sapiens, UniProt P24941) | cell-free assay, competition with immobilised ligand | 100% |
| MAPK1 (Homo sapiens, UniProt P28482) | cell-free assay, competition with immobilised ligand | 82% |
| MAPK15 (Homo sapiens, UniProt Q8TD08) | cell-free assay, competition with immobilised ligand | 100% |
| PRKD3 (Homo sapiens, UniProt O94806) | cell-free assay, competition with immobilised ligand | 100% |
| CDK19 (Homo sapiens, UniProt Q9BWU1) | competition binding | 100% |
| EPHA6 (Homo sapiens, UniProt Q9UF33) | cell-free assay, competition with immobilised ligand | 91% |
| BMPR1B (Homo sapiens, UniProt O00238) | cell-free assay, competition with immobilised ligand | 89% |
| COQ8A (Homo sapiens, UniProt Q8NI60) | cell-free assay, competition with immobilised ligand | 89% |
| Aurora kinase A (AURKA, Homo sapiens, UniProt O14965) | cell-free assay, competition with immobilised ligand | 96% |

Series 2
Structure (SMILES): O=C1Cc2c([nH]c3ccc([N+](=O)[O-])cc23)-c2ccccc2N1
Read-out: enzyme activity
Action: inhibitor
Tested at: 0.5 µM
Relative to: control
| target | remaining activity |
| --- | --- |
| Cyclin-dependent kinase 6, with cyclin D3 (CDK6, Homo sapiens, UniProt Q00534) | 43.4% |
| RPS6KA5 (Homo sapiens, UniProt O75582) | 107% |
| TSSK2 (Homo sapiens, UniProt Q96PF2) | 88.3% |
| EPHA4 (Homo sapiens, UniProt P54764) | 96.5% |
| PDPK1 (Homo sapiens, UniProt O15530) | 93.7% |
| HIPK4 (Homo sapiens, UniProt Q8NE63) | 103% |
| EPHB1 (Homo sapiens, UniProt P54762) | 112% |
| EPHB4 (Homo sapiens, UniProt P54760) | 87.2% |
| WNK3 (Homo sapiens, UniProt Q9BYP7) | 99.7% |
| MAP4K4 (Homo sapiens, UniProt O95819) | 4.47% |
| DYRK3 (Homo sapiens, UniProt O43781) | 99.3% |
| BLK (Homo sapiens, UniProt P51451) | 94.2% |
| RPS6KA6 (Homo sapiens, UniProt Q9UK32) | 38% |
| STK17A (Homo sapiens, UniProt Q9UEE5) | 46.4% |
| STK16 (Homo sapiens, UniProt O75716) | 93.1% |
| HIPK2 (Homo sapiens, UniProt Q9H2X6) | 110% |
| MAPKAPK3 (Homo sapiens, UniProt Q16644) | 97% |
| Cyclin-dependent kinase 1, with cyclin B (CDK1, Homo sapiens, UniProt P06493) | 23.2% |
| CAMK2B (Homo sapiens, UniProt Q13554) | 98.1% |
| SRMS (Homo sapiens, UniProt Q9H3Y6) | 92.9% |
| ABL1 (Homo sapiens, UniProt P00519) | 57.7% |
| AXL (Homo sapiens, UniProt P30530) | 100% |
| PHKG1 (Homo sapiens, UniProt Q16816) | 9.22% |

Series 3
SMILES: COc1ccc2[nH]c3c4[nH]c5ccc(OC)cc5c4c4c(c3c2c1)C(=O)NC4=O
Read-out: binding
Tested at: 1 µM
| target | test | remaining binding |
| --- | --- | --- |
| PKN2 (Homo sapiens, UniProt Q16513) | – | 52% |
| PRKCQ (Homo sapiens, UniProt Q04759) | – | 44% |
| LYN (Homo sapiens, UniProt P07948) | competition with immobilised ligand | 69% |
| STK10 (Homo sapiens, UniProt O94804) | competition with immobilised ligand | 88% |
| FLT3 (Homo sapiens, UniProt P36888, D835H) | – | 12% |
| TNK2 (Homo sapiens, UniProt Q07912) | competition with immobilised ligand | 69% |
| BMPR1A (Homo sapiens, UniProt P36894) | competition with immobilised ligand | 100% |
| MELK (Homo sapiens, UniProt Q14680) | – | 43% |
| PRKCE (Homo sapiens, UniProt Q02156) | – | 75% |
| MAP3K20 (Homo sapiens, UniProt Q9NYL2) | competition with immobilised ligand | 100% |
| PAK3 (Homo sapiens, UniProt O75914) | – | 4.2% |
| TGFBR2 (Homo sapiens, UniProt P37173) | competition with immobilised ligand | 100% |
| CDK15 (Homo sapiens, UniProt Q96Q40) | competition with immobilised ligand | 91% |
| YES1 (Homo sapiens, UniProt P07947) | competition with immobilised ligand | 73% |

Series 4
Compound: CCN(c1nc(N)c(C(=O)N=C(N)N)nc1Cl)C(C)C
Read-out: β-arrestin recruitment
Action: agonist
Technique: PRESTO-Tango
Tested at: 10 µM
Relative to: untreated
| target | fold over basal |
| --- | --- |
| G-protein coupled receptor 6 (Homo sapiens, UniProt P46095) | 1.1 |
| P2Y purinoceptor 13 (P2RY13, Homo sapiens, UniProt Q9BPV8) | 0.93 |
| MRGPRD (Homo sapiens, UniProt Q8TDS7) | 0.9 |
| Motilin receptor (MLNR, Homo sapiens, UniProt O43193) | 0.68 |
| GPR17 (Homo sapiens, UniProt Q13304) | 0.88 |
| CNR1 (Homo sapiens, UniProt P21554) | 0.77 |
| Melatonin-related receptor (GPR50, Homo sapiens, UniProt Q13585) | 0.74 |
| Probable G-protein coupled receptor 34 (Homo sapiens, UniProt Q9UPC5) | 0.92 |
| GPR68 (Homo sapiens, UniProt Q15743) | 0.71 |
| OXER1 (Homo sapiens, UniProt Q8TDS5) | 0.72 |
| MC1R (Homo sapiens, UniProt Q01726) | 1.31 |
| HRH4 (Homo sapiens, UniProt Q9H3N8) | 0.82 fold |
| HCAR2 (Homo sapiens, UniProt Q8TDS4) | 0.74 fold |
| SSTR2 (Homo sapiens, UniProt P30874) | 0.33 |
| G-protein coupled receptor 87 (GPR87, Homo sapiens, UniProt Q9BY21) | 0.89 |

Excerpt of the above (series 4):
| target | fold over basal |
| --- | --- |
| G-protein coupled receptor 6 (Homo sapiens, UniProt P46095) | 1.1 |
| P2Y purinoceptor 13 (P2RY13, Homo sapiens, UniProt Q9BPV8) | 0.93 |
| MRGPRD (Homo sapiens, UniProt Q8TDS7) | 0.9 |
| Motilin receptor (MLNR, Homo sapiens, UniProt O43193) | 0.68 |
| GPR17 (Homo sapiens, UniProt Q13304) | 0.88 |
| CNR1 (Homo sapiens, UniProt P21554) | 0.77 |
| Melatonin-related receptor (GPR50, Homo sapiens, UniProt Q13585) | 0.74 |
| Probable G-protein coupled receptor 34 (Homo sapiens, UniProt Q9UPC5) | 0.92 |
| GPR68 (Homo sapiens, UniProt Q15743) | 0.71 |
| OXER1 (Homo sapiens, UniProt Q8TDS5) | 0.72 |
